Measured values gathered from unrelated publications.
Target: Carbonic anhydrase 9 (CA9, Homo sapiens, UniProt Q16790)

Structure (SMILES)	observed	mode	technique	quantity	result
NS(=O)(=O)c1ccc(NC(=O)NN[C@@H]2OC[C@@H](O)[C@H](O)[C@H]2O)cc1	enzyme activity	inhibitor		IC50	0.088 µM
C[C@@H]1O[C@H](NC(=O)c2ccc(S(N)(=O)=O)cc2)[C@H](O)[C@H](O)[C@H]1O	enzyme activity	inhibitor	absorbance	IC50	0.76 µM
C[C@H]1OC(OC[C@@H]2OC(Oc3cc4oc(=O)ccc4cc3O)[C@@H](O)[C@H](O)[C@H]2O)[C@H](O)[C@@H](O)[C@@H]1O (some centres unmarked)	enzyme activity	inhibitor		IC50	0.248 µM
NS(=O)(=O)c1ccc(NC(=O)NN[C@@H]2O[C@H](CO)[C@H](O)[C@H](O)[C@H]2O)cc1	enzyme activity	inhibitor		IC50	0.064 µM
COc1cc2ccc(=O)oc2cc1OC1OC(COC2OCC(O)(CO)C2O)C(O)C(O)C1O (centres unmarked)	enzyme activity	inhibitor		IC50	0.0853 µM
Cc1ccc(S(=O)(=O)Nc2ccccc2Sc2ccccc2)cc1	enzyme activity	inhibitor		IC50	0.77 µM
NS(=O)(=O)c1ccc(NC(=O)NN[C@@H]2O[C@H](CO)[C@@H](O)[C@H]2O)cc1	enzyme activity	inhibitor		IC50	0.132 µM
NS(=O)(=O)c1ccc(C(=O)O)cc1	enzyme activity	inhibitor		IC50	1.2 µM
COCCOc1cc2ncnc(Nc3cccc(-c4cn(Cc5ccc(C(=O)Nc6ccc(S(N)(=O)=O)cc6)cc5)nn4)c3)c2cc1OCCOC	enzyme activity	inhibitor	stopped-flow	Ki	0.04 µM
COc1ccc(/C(C)=N/NC(=O)CSc2nc3ccccc3c(=O)n2CCc2ccc(S(N)(=O)=O)cc2)cc1	enzyme activity	inhibitor	stopped-flow	Ki	0.0439 µM
COCCOc1cc2ncnc(Nc3cccc(-c4cn(Cc5ccc(C(=O)Nc6cccc(S(N)(=O)=O)c6)cc5)nn4)c3)c2cc1OCCOC	enzyme activity	inhibitor	stopped-flow	Ki	0.561 µM
NS(=O)(=O)c1ccc(N/N=C2\C(=O)N(CC(=O)Nc3ccccc3Cl)c3ccccc32)cc1				Ki	0.673 µM
Cc1cc(C)cc(C(=O)Nc2cccc(S(N)(=O)=O)c2)c1	enzyme activity	inhibitor		IC50	14.6 µM
COCCOc1cc2ncnc(Nc3cccc(-c4cn(CC(=O)Nc5ccc(S(N)(=O)=O)cc5)nn4)c3)c2cc1OCCOC	enzyme activity	inhibitor	stopped-flow	Ki	0.443 µM

A few entries again:
Structure (SMILES)	observed	mode	technique	quantity	result
NS(=O)(=O)c1ccc(C(=O)O)cc1	enzyme activity	inhibitor		IC50	1.2 µM
NS(=O)(=O)c1ccc(NC(=O)NN[C@@H]2O[C@H](CO)[C@@H](O)[C@H]2O)cc1	enzyme activity	inhibitor		IC50	0.132 µM
